Assay results from different studies.
± gives the spread as reported.
CDK2 with cyclin A2: Cyclin-dependent kinase 2, with cyclin A2 (CDK2, Homo sapiens, UniProt P24941)
CDK2 with cyclin E: Cyclin-dependent kinase 2, with cyclin E (CDK2, Homo sapiens, UniProt P24941)
CDK2: Cyclin-dependent kinase 2 (CDK2, Homo sapiens, UniProt P24941)
CDK2 with cyclin A: Cyclin-dependent kinase 2, with cyclin A (CDK2, Homo sapiens, UniProt P24941)

SMILES = C#CCSc1nc(Sc2nnnn2-c2ccccc2)c2nnn(Cc3ccccc3Cl)c2n1; target = CDK2 with cyclin A2; observed = enzyme activity; mode = inhibitor; concentration = 10 µM; inhibition = < 15%
SMILES = CC(C)Cn1cc(-c2ccnc(Nc3ccc(OCCCCCCC(=O)NO)cc3)n2)nn1; target = CDK2 with cyclin A2; observed = enzyme activity; mode = inhibitor; technique = TR-FRET; concentration = 5 µM; inhibition = 49.6%
SMILES = CC(C)(C)OC(=O)NCCCNC(=O)c1cc2c(=O)[nH]c3ccccc3c2s1; target = CDK2 with cyclin E; concentration = concentration not given; inhibition = 6.5%
SMILES = Cc1ccc(C(C)C)cc1.Cc1ncc(CO)c(C=NNC2=Nc3ccccc3-c3[nH]c4ccc(Br)cc4c3C2)c1O.[Cl-].[Cl][Ru+]; target = CDK2 with cyclin E; observed = enzyme activity; mode = inhibitor; technique = radiometric; concentration = 10 µM; inhibition = 37%
SMILES = O=C(c1ccc2ccccc2c1)c1cn(-c2ccccc2)nc1C1=Nn2c(Cc3nnc4n3N=C(c3nn(-c5ccccc5)cc3C(=O)c3ccc5ccccc5c3)CS4)nnc2SC1; target = CDK2; observed = enzyme activity; mode = inhibitor; technique = ATP luminescence; concentration = 10 µM; inhibition = 94.1%
SMILES = CC1=CC[C@]2(C(=O)O[C@H]3OC[C@@H](O)[C@@H](O)[C@@H]3OS(=O)(=O)O)CC[C@]3(C)C(CCC4[C@@]5(C)CC[C@H](O)C(C)(C)C5CC[C@]43C)C2[C@H]1C (stereo partly shown); target = CDK2; observed = enzyme activity; mode = inhibitor; concentration = 10 µM; inhibition = 96.2%
SMILES = O=C(CCCCCCOc1ccc(Nc2ncc(F)c(-c3cn(C4CCCCC4)nn3)n2)cc1)NO; target = CDK2 with cyclin A2; observed = enzyme activity; mode = inhibitor; technique = TR-FRET; concentration = 50 nM; inhibition = -5.79%
SMILES = CN1CC[C@H](c2c(O)cc(O)c3c(=O)cc(/C=C/c4c(Cl)cccc4Cl)oc23)[C@H](O)C1; target = CDK2 with cyclin A; observed = enzyme activity; mode = inhibitor; concentration = 500 nM; inhibition = 85 ± 0.5%
SMILES = CC(C)Cn1cc(-c2nc(Nc3ccc(OCCCCCCC(=O)NO)cc3)ncc2F)nn1; target = CDK2 with cyclin A2; observed = enzyme activity; mode = inhibitor; technique = TR-FRET; concentration = 50 nM; inhibition = -4.44%
SMILES = Nc1nc(Nc2ccccc2)sc1C(=O)c1ccccc1; target = CDK2 with cyclin A; observed = enzyme activity; mode = inhibitor; concentration = 10 µM; inhibition = > 90%

Excerpt of the above:
SMILES = CN1CC[C@H](c2c(O)cc(O)c3c(=O)cc(/C=C/c4c(Cl)cccc4Cl)oc23)[C@H](O)C1; target = CDK2 with cyclin A; observed = enzyme activity; mode = inhibitor; concentration = 500 nM; inhibition = 85 ± 0.5%
